Published values collected from several papers.
Numbers after ± are the reported error.

SMILES	cell line	read-out	method	time	setting	EC50 [µM]
Cc1ccc(C(C)C)c(OCc2ccc(C(=O)N/N=C/c3cccc(O)c3O)cc2)c1	LDR	silenced GFP reporter derepression	microscopy	overnight		4
C#CC[C@@H](/C=C/S(C)(=O)=O)NC(=O)[C@H](COC)NC(=O)[C@H](CCc1ccccc1)NC(=O)CN1CCOCC1	HFF, non-confluent	cell viability	CellTiter-Blue	72 h		8.54 ± 2
CCC(=O)N1CCN(c2ccc(NC(=O)c3ccc([N+](=O)[O-])o3)cc2Cl)CC1	LDR	silenced GFP reporter derepression	microscopy	overnight		2
CC[C@@H](/C=C/S(C)(=O)=O)NC(=O)[C@H](COC)NC(=O)[C@H](CCc1ccccc1)NC(=O)CN1CCOCC1	HFF, non-confluent	cell viability	CellTiter-Blue	1 h		> 250
Cc1cc(C)nc(NC(=S)N2CCN(Cc3ccc(C(F)(F)F)cc3)CC2)c1	MT-3	cytotoxicity	CellTiter-Glo	4 days		9
CCCCCCCCC1(CCCCCCCC)c2cc(C#Cc3cc4[n+]5c(c3)-c3cccc[n+]3[Ir-3]536([n+]5ccccc5-4)[n+]4ccccc4-c4cc(-c5ccccc5)cc([n+]43)-c3cccc[n+]36)ccc2-c2ccc(C#Cc3cc4[n+]5c(c3)-c3cccc[n+]3[Ir-3]536([n+]5ccccc5-4)[n+]4ccccc4-c4cc(-c5ccccc5)cc([n+]43)-c3cccc[n+]36)cc21.F[P-](F)(F)(F)(F)F.F[P-](F)(F)(F)(F)F.F[P-](F)(F)(F)(F)F.F[P-](F)(F)(F)(F)F.F[P-](F)(F)(F)(F)F.F[P-](F)(F)(F)(F)F	SK-MEL-28	cell viability	resazurin	16 h plus 48 h	dark	16.9 ± 0.8
N=C(S)N/N=C/c1ncc(C(F)(F)F)cc1Cl	LDR	silenced GFP reporter derepression	microscopy	overnight		8
Cc1cc(C)cc(OCC(N)c2ccccc2)c1 (stereo not drawn)	normal hiPSC cardiomyocytes	APD75 prolongation	kinetic imaging cytometry			> 200
Cc1ccc(CC(=O)c2c(O)c(O)cc3c(O)c(-c4c(C)cc5c(C(=O)Cc6ccc(C)cc6)c(O)c(O)cc5c4O)c(C)cc23)cc1	H1299	cell viability	ATP luminescence	72 h		1.7
CCCCCCCCC1(CCCCCCCC)c2cc(-c3cc4[n+]5c(c3)-c3cccc[n+]3[Ir-3]536([c]5ccccc5-c5cc(-c7ccccc7)cc([n+]53)-c3cccc[c]36)[n+]3ccccc3-4)ccc2-c2ccc(-c3cc4[n+]5c(c3)-c3cccc[n+]3[Ir-3]536([c]5ccccc5-c5cc(-c7ccccc7)cc([n+]53)-c3cccc[c]36)[n+]3ccccc3-4)cc21.F[P-](F)(F)(F)(F)F.F[P-](F)(F)(F)(F)F	SK-MEL-28	cell viability	resazurin	16 h before light	visible light 100 J/cm2	1.05 ± 0.01
CC(C)C[C@@H](/C=C/S(C)(=O)=O)NC(=O)[C@H](CC(C)C)NC(=O)[C@H](Cc1ccc2ccccc2c1)NC(=O)CN1CCOCC1	HFF, non-confluent	cell viability	CellTiter-Blue	72 h		1.67 ± 0.26
O=C1CC(=O)N(CCc2ccccc2)C(=O)N1CCc1ccccc1	PC12 SOD1 G93A-YFP	protection from cytotoxicity				1.05
CC1=C(C2=C(C)C(=O)c3c(cc(O)c(O)c3Cc3ccccc3)C2=O)C(=O)c2cc(O)c(O)c(Cc3ccccc3)c2C1=O (racemic)	BP3 human lymphoma	apoptosis	annexin V-PI staining	24 h		4.87 ± 0.5
NC(COc1ccccc1C(F)(F)F)c1ccccc1 (stereo not drawn)	normal hiPSC cardiomyocytes	APD75 prolongation	kinetic imaging cytometry			> 200
Cc1ccc(CC(=O)N(CCCn2ccnc2)c2nc3ccccc3s2)c(C)c1	SW620 organoids	E-cadherin reporter			2-fold induction	8.3
CC(C)C[C@@H](/C=C/S(C)(=O)=O)NC(=O)[C@H](CC(C)C)NC(=O)[C@H](CCc1ccccc1)NC(=O)CN1CCOCC1	HFF, non-confluent	cell viability	CellTiter-Blue	1 h		75.7 ± 12.7
Oc1c(/N=N/c2ccccn2)ccc2ccccc12	LDR	silenced GFP reporter derepression	microscopy	overnight		32
CCCCCCCCC1(CCCCCCCC)c2cc(-c3cc4[n+]5c(c3)-c3cccc[n+]3[Ir-3]536([n+]5ccccc5-c5cc(-c7ccccc7)cc([n+]53)-c3cccc[n+]36)[n+]3ccccc3-4)ccc2-c2ccc(-c3cc4[n+]5c(c3)-c3cccc[n+]3[Ir-3]536([n+]5ccccc5-c5cc(-c7ccccc7)cc([n+]53)-c3cccc[n+]36)[n+]3ccccc3-4)cc21.F[P-](F)(F)(F)(F)F.F[P-](F)(F)(F)(F)F.F[P-](F)(F)(F)(F)F.F[P-](F)(F)(F)(F)F.F[P-](F)(F)(F)(F)F.F[P-](F)(F)(F)(F)F	SK-MEL-28	cell viability	resazurin	16 h plus 48 h	dark	82.6 ± 1.5
O=[N+]([O-])C(=C\Nc1ccccc1O)/C=N/c1ccccc1O	LDR	silenced GFP reporter derepression	microscopy	overnight		18
CC(C)C[C@@H](/C=C/S(C)(=O)=O)NC(=O)[C@H](CC(C)C)NC(=O)[C@H](Cc1cccc2ccccc12)NC(=O)CN1CCOCC1	HFF, non-confluent	cell viability	CellTiter-Blue	72 h		1.8 ± 0.39
COc1cccc(/C=N/Nc2nc(Nc3ccccc3)nc(-n3nc(C)cc3C)n2)c1O	LDR	silenced GFP reporter derepression	microscopy	overnight		4
COC[C@H](NC(=O)[C@H](CCc1ccccc1)NC(=O)CN1CCOCC1)C(=O)N[C@H](/C=C/S(C)(=O)=O)Cc1cccs1	HFF, non-confluent	cell viability	CellTiter-Blue	1 h		> 250
CCN(CC)CCCNC(=O)CSc1c2c(nc3cc(Cl)ccc13)CCCC2	LDR	silenced GFP reporter derepression	microscopy	overnight		10
COC[C@H](NC(=O)[C@H](CCc1ccccc1)NC(=O)c1cnc(C)s1)C(=O)N[C@H](/C=C/S(C)(=O)=O)Cc1cccs1	HFF, non-confluent	cell viability	CellTiter-Blue	72 h		2.22 ± 0.077
C=CC(=O)Nc1cc(-c2nn(C3CCN(CCNC(=O)[C@H](C)CCC45CC6CC(CC(C6)C4)C5)CC3)c3ncnc(N)c23)ccc1Oc1ccccc1	PC-9/GR4 with HER3 C721S	cell proliferation	CellTiter-Glo	72 h		5.5
COC[C@H](NC(=O)[C@H](CCc1ccccc1)NC(=O)CN1CCOCC1)C(=O)N[C@H](/C=C/S(C)(=O)=O)CC(C)C	HFF, non-confluent	cell viability	CellTiter-Blue	1 h		> 250
CC1=C/C(=N\N=C(/S)Nc2cccnc2)CC(C)(C)C1	LDR	silenced GFP reporter derepression	microscopy	overnight		3

Some of these lines once more:
SMILES	cell line	read-out	method	time	setting	EC50 [µM]
Cc1ccc(CC(=O)N(CCCn2ccnc2)c2nc3ccccc3s2)c(C)c1	SW620 organoids	E-cadherin reporter			2-fold induction	8.3
COC[C@H](NC(=O)[C@H](CCc1ccccc1)NC(=O)CN1CCOCC1)C(=O)N[C@H](/C=C/S(C)(=O)=O)Cc1cccs1	HFF, non-confluent	cell viability	CellTiter-Blue	1 h		> 250
CCC(=O)N1CCN(c2ccc(NC(=O)c3ccc([N+](=O)[O-])o3)cc2Cl)CC1	LDR	silenced GFP reporter derepression	microscopy	overnight		2
CC(C)C[C@@H](/C=C/S(C)(=O)=O)NC(=O)[C@H](CC(C)C)NC(=O)[C@H](CCc1ccccc1)NC(=O)CN1CCOCC1	HFF, non-confluent	cell viability	CellTiter-Blue	1 h		75.7 ± 12.7
